Results collected from several papers.
A part holds a random share of what one study measured.
Sequence of UniProt P10721 (whole entry, unmodified, looked up): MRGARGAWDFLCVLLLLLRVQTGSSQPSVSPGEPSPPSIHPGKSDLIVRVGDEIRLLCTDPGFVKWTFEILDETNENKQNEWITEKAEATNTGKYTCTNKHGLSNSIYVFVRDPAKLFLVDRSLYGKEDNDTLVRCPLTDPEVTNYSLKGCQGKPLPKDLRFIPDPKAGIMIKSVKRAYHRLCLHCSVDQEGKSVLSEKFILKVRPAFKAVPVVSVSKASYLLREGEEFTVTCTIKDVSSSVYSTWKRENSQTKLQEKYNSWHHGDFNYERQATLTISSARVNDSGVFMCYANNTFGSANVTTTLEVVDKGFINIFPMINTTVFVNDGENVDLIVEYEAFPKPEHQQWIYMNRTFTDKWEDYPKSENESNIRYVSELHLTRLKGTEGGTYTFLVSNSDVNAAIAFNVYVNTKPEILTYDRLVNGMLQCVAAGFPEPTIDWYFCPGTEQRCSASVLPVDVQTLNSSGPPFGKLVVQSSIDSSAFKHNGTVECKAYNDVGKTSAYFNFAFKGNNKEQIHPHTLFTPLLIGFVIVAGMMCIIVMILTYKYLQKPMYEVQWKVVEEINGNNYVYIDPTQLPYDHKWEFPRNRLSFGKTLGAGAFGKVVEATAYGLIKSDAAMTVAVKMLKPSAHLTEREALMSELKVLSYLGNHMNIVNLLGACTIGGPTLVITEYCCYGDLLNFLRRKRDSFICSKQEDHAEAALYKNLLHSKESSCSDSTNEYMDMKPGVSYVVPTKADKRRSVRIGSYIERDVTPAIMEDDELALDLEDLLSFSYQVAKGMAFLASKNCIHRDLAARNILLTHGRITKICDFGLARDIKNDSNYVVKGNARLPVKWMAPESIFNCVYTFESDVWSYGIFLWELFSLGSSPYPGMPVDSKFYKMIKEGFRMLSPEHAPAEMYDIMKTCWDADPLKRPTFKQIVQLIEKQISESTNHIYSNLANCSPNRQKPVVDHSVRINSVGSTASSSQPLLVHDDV
Sequence of UniProt O75676 (whole entry, looked up): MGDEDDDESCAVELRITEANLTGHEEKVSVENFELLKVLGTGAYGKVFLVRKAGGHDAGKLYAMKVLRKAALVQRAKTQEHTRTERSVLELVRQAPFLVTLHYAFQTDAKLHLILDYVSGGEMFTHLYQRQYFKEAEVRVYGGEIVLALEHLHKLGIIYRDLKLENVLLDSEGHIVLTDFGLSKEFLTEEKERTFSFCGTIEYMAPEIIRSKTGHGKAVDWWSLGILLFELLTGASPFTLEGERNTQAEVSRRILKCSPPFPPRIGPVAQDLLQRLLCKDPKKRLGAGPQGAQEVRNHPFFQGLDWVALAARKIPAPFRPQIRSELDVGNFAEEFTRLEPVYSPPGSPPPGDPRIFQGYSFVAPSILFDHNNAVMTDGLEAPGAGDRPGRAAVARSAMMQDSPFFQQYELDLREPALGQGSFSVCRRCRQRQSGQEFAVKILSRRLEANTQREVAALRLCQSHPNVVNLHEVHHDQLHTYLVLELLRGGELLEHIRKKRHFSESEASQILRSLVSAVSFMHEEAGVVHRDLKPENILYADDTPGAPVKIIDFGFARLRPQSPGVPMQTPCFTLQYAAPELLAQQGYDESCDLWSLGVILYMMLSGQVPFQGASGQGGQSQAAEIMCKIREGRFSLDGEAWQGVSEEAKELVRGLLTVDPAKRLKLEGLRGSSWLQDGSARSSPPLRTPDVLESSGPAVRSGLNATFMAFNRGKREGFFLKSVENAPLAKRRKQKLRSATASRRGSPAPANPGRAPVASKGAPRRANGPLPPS
Sequence of UniProt Q13177 (whole entry, looked up): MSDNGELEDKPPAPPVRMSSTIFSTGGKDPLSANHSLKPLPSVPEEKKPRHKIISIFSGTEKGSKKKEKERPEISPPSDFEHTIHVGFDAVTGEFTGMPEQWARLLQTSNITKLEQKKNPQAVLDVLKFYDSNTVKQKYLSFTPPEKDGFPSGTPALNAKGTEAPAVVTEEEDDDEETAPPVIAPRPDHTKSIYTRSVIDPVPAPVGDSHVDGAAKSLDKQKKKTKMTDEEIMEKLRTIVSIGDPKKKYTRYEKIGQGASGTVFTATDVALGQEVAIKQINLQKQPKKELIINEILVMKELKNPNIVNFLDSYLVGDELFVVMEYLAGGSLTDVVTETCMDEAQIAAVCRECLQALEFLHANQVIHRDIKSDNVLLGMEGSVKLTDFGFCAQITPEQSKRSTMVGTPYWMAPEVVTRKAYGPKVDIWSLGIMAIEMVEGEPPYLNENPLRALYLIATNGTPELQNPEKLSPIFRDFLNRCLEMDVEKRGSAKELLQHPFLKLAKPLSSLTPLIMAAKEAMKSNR
Sequence of UniProt Q15349 (whole entry, looked up): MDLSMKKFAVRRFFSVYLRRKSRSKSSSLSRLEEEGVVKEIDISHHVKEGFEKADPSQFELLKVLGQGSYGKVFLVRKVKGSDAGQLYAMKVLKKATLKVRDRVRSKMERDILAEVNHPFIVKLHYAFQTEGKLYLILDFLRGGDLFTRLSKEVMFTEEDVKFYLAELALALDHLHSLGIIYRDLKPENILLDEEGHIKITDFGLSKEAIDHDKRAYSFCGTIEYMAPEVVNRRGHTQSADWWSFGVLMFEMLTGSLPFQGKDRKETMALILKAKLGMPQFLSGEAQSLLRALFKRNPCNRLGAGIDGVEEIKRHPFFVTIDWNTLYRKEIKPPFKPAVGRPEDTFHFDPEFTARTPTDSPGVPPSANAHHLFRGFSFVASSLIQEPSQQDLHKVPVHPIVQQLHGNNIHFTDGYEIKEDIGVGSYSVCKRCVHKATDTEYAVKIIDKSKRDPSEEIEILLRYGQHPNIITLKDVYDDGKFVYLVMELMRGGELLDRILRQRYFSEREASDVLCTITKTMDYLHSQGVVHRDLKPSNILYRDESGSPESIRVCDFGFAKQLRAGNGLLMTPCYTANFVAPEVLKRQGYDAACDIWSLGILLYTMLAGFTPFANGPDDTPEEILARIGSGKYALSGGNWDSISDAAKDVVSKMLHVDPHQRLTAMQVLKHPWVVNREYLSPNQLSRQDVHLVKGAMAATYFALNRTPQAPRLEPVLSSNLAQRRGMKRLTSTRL
Sequence of UniProt Q8NG66 (whole entry, looked up): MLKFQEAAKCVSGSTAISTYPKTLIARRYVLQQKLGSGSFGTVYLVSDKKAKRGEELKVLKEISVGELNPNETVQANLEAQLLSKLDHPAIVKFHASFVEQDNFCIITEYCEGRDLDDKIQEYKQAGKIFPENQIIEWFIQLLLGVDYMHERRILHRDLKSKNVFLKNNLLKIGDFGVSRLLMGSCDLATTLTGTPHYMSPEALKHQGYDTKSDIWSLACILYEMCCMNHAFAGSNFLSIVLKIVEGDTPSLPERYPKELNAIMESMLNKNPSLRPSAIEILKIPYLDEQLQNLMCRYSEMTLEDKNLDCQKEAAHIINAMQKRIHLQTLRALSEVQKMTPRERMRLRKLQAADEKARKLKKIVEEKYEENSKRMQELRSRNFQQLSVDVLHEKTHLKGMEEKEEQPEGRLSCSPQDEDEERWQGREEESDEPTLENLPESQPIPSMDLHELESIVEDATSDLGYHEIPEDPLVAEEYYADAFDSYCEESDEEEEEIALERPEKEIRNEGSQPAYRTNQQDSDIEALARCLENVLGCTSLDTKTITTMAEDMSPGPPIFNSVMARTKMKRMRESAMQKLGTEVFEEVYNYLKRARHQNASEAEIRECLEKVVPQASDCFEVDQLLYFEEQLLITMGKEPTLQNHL

Block 1
Host: human
Medium: microsomes or S9
Tested at: 2 µM
Time: 0.5 h
Endpoint: remaining compound
SMILES = CCOC(=O)c1c(C(F)(F)F)[nH]n2c(C(F)F)nnc12; result = 33%
SMILES = Cc1ccc(NC(=O)C(Cc2cccc(C)c2)c2nnn[nH]2)cc1 (stereo not drawn); result = 63.1%
SMILES = O=C(Cc1cnc[nH]c1=O)N[C@@H]1CCCC[C@H]1c1ccccc1; result = > 100%
SMILES = CC(C)CN/C(=N/S(=O)(=O)c1ccccc1)c1ccccc1; result = 86.8%
SMILES = O=S(=O)(Nc1cc(Cl)c(Cl)cc1Cl)c1cc(Cl)c(Cl)cc1Cl; result = 59.6%
SMILES = CN(C(=O)CN1C(=O)COc2cc(Cl)c(Cl)cc21)C(CN1CCCC1)c1ccc(-c2ncccn2)cc1 (stereo not drawn); result = 72.6%

Block 2
Compound: CC1=C(C#N)[C@@H](c2ccc3[nH]nc(C)c3c2)C(C#N)=C(c2ccc(Cl)cc2)N1
Read-out: cell-free assay
Method: competition with immobilised ligand
Tested at: 1 µM
Endpoint: remaining binding
target = Ribosomal protein S6 kinase alpha-2, C-terminal kinase domain (RPS6KA2, Homo sapiens, UniProt Q15349); result = 100%
target = Citron Rho-interacting kinase (CIT, Homo sapiens, UniProt O14578); result = 100%
target = Mitogen-activated protein kinase kinase kinase 11 (MAP3K11, Homo sapiens, UniProt Q16584); result = 100%
target = Fibroblast growth factor receptor 4 (FGFR4, Homo sapiens, UniProt P22455); result = 100%
target = Serine/threonine-protein kinase PAK 2 (PAK2, Homo sapiens, UniProt Q13177); result = 100%
target = Myosin light chain kinase, smooth muscle (MYLK, Homo sapiens, UniProt Q15746); result = 100%
target = Serine/threonine-protein kinase PLK2 (PLK2, Homo sapiens, UniProt Q9NYY3); result = 100%
target = Mast/stem cell growth factor receptor Kit (KIT, Homo sapiens, UniProt P10721, A829P); result = 100%
target = Epidermal growth factor receptor (EGFR, Homo sapiens, UniProt P00533, del752-759); result = 100%
target = Ribosomal protein S6 kinase alpha-4, C-terminal kinase domain (RPS6KA4, Homo sapiens, UniProt O75676); result = 100%
target = Tyrosine-protein kinase ABL1, non-phosphorylated (ABL1, Homo sapiens, UniProt P00519); result = 52.6%
target = Mast/stem cell growth factor receptor Kit (KIT, Homo sapiens, UniProt P10721, L576P); result = 100%
target = Serine/threonine-protein kinase Nek11 (NEK11, Homo sapiens, UniProt Q8NG66); result = 62.4%
target = Tyrosine-protein kinase ABL1, phosphorylated (ABL1, Homo sapiens, UniProt P00519, M351T); result = 94.6%

Block 3
Organism: Plasmodium berghei
Action: inhibitor
Cell line: Huh-7
Strain: GFP-expressing, liver stage
Tested at: 10 µM
Time: 24 h
Baseline: untreated control
Endpoint: infection rate
SMILES = COc1cc(C(=O)N2CCOCC2)cc(OC)c1OC; result = 119%
SMILES = CO[C@H]1C[C@@H]2CC[C@@H](C)[C@@](O)(O2)C(=O)C(=O)N2CCCC[C@H]2C(=O)O[C@H]([C@H](C)C[C@@H]2CC[C@@H](O)[C@H](OC)C2)CC(=O)[C@H](C)/C=C(\C)[C@@H](O)[C@@H](OC)C(=O)[C@H](C)C[C@H](C)/C=C/C=C/C=C/1C; result = 16.9%
SMILES = C=CC[C@@H]1/C=C(\C)C[C@H](C)C[C@H](OC)[C@H]2O[C@@](O)(C(=O)C(=O)N3CCCC[C@H]3C(=O)O[C@H](/C(C)=C/[C@@H]3CC[C@@H](O)[C@H](OC)C3)[C@H](C)[C@@H](O)CC1=O)[C@H](C)C[C@@H]2OC; result = 65.8%
SMILES = CC1(C)S[C@@H]2[C@H](NC(=O)[C@H](C(=O)O)c3ccsc3)C(=O)N2[C@H]1C(=O)O; result = 36.3%
SMILES = COC(=O)[C@@H]1[C@H]2C[C@H]3c4[nH]c5ccccc5c4CCN3C[C@@H]2CC[C@@H]1O; result = 87.8%
SMILES = Cc1cc(C(C)(C)C)c(O)c(C)c1CC1=NCCN1; result = 98%
SMILES = CN(CCOc1ccc(CC2SC(=O)NC2=O)cc1)c1ccccn1 (stereo not drawn); result = 74.4%

Block 4
Target: Serine/threonine-protein kinase ULK1 (ULK1, Homo sapiens, UniProt O75385)
Sequence of UniProt O75385 (whole entry, looked up): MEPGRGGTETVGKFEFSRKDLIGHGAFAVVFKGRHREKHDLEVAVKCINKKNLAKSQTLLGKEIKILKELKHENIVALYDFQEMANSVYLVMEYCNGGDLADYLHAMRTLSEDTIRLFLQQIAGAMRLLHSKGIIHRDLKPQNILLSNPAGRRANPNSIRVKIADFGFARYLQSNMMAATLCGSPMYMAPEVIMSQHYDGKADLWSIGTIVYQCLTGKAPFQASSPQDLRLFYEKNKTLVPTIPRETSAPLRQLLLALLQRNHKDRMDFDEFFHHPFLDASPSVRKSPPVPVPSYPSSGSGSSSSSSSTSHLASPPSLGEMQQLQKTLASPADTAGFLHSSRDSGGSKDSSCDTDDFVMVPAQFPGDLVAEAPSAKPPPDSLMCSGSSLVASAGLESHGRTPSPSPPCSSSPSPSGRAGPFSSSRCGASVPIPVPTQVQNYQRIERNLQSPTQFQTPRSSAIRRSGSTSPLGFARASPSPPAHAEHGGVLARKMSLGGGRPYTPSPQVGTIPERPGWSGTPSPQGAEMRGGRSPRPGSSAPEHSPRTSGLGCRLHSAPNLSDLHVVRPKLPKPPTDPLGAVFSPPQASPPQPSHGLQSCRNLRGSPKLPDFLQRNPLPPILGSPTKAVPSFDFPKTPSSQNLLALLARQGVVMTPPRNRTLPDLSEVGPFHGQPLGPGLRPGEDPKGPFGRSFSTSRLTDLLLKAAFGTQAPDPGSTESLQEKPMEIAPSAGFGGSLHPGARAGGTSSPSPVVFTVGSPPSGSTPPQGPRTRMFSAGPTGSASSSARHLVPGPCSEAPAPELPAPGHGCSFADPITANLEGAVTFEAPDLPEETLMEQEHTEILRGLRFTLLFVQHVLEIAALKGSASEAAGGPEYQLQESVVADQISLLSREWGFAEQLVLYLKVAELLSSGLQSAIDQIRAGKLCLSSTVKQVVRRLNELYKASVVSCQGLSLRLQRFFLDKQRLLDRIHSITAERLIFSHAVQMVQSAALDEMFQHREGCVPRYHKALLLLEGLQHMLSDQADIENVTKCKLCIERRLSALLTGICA
Read-out: enzyme activity
Action: inhibitor
Tested at: 0.5 µM
Baseline: control
Endpoint: remaining activity
SMILES = CCCCc1c(-c2ccc(O)cc2)[nH]c2nccnc12; result = 82.5%
SMILES = CNc1cc2c(Nc3cccc(Br)c3)ncnc2cn1; result = 98.8%
SMILES = COc1cc2c(N3CCN(C(=O)Nc4ccc(OC(C)C)cc4)CC3)ncnc2cc1OCCCN1CCCCC1; result = 92.1%
SMILES = O=C(O)/C=C/c1cc(Br)c(Br)c(Br)c1Br; result = 108%
SMILES = CC(C)n1cnc2c(Nc3cccc(Cl)c3)nc(NCCO)nc21; result = 77.6%
SMILES = O=C1c2ccccc2-c2nc3nnnn3nc21; result = 107%
SMILES = COc1cc2c(Nc3ccc(Br)cc3F)ncnc2cc1OCC1CCN(C)CC1; result = 95.7%
SMILES = NC(=O)c1ccc(-c2nc(-c3ccc4c(c3)OCCO4)c(-c3ccccn3)[nH]2)cc1; result = 103%
SMILES = FC(F)(F)c1ccc(/C=C/c2nc(COc3ccc(CCCCn4ccnn4)cc3)co2)cc1; result = 87.2%

Repeated from above (block 1):
SMILES = Cc1ccc(NC(=O)C(Cc2cccc(C)c2)c2nnn[nH]2)cc1 (stereo not drawn); result = 63.1%
SMILES = O=C(Cc1cnc[nH]c1=O)N[C@@H]1CCCC[C@H]1c1ccccc1; result = > 100%
